Results pooled from the literature.
Protocols differ between the studies behind these lines. Numbers after ± are the reported error.

SMILES | target or system | assay | system | setting | how to read | endpoint | result
CC(C)[C@H](C(=O)Nc1ccc(C(=O)NO)cc1)c1ccccc1 |  | volumetric MRI | human, right anterior meningioma | dose not given, day 373 |  | tumour volume | 0.4 cm3
N=C(N)NCCC[C@@H](N)C(=O)N[C@@H](CCCNC(=N)N)C(=O)N1CCC[C@H]1C(=O)N1C[C@H](O)C[C@H]1C(=O)NCC(=O)N[C@@H](Cc1cccs1)C(=O)N[C@@H](CO)C(=O)N1Cc2ccccc2C[C@@H]1C(=O)N1[C@H](C(=O)N[C@@H](CCCNC(=N)N)C(=O)O)C[C@@H]2CCCC[C@@H]21 |  |  | pediatric hereditary angioedema patients | subcutaneous, 0.4 mg/kg, up to 30 mg, median | lower = faster relief | time to symptom relief | 1 h
CC(C)NCC(O)c1ccc(O)c(O)c1 (stereo not drawn) |  |  | ventricular cardiomyocytes, C57BL/6 mouse | dose not given, 0.584 s |  | sarcomere length | 1.61 µm
CCCCC1C(=O)N(c2ccccc2)N(c2ccc(O)cc2)C1=O (stereo not drawn) | human iPSC-derived cardiomyocytes | MyBP-C/MYH ratio, plate-normalised SD score |  | concentration not given, primary screen | direction not given | activity score | 8.5
[Cl-].[Cl-].[Pt+2].[Ru+2].c1ccc(-c2nc3cc4ccccc4cc3nc2-c2ccccn2)nc1.c1cnc2c(c1)ccc1cccnc12.c1cnc2c(c1)ccc1cccnc12 |  | chloride substitution, UV-vis kinetics | aqueous buffer | concentration not given, pH 7.2, second substitution step, with: L-methionine |  | negative activation entropy | 168 ± 11 J/(mol·K)
O=C(/C=C/c1ccc(O)c(O)c1/C=C/c1ccc(O)c(O)c1)O[C@H](Cc1ccc(O)c(O)c1)C(=O)O |  |  | isolated myocardial tissue | 10 µM |  | LVDP | 52.6 mmHg
c1ccc(-c2n[nH]cc2-c2ccnc3ccccc23)nc1 |  | kinase binding, competitor, MIB/MS competition, item: YAK1 | Candida albicans cell lysate | 100 nM | baseline: DMSO | log2 fold change | 1.02
CN[C@@H]1COc2c(S(=O)(=O)NC(=O)Nc3c4c(cc5c3CCC5)CCC4)cnn2C1 |  | item: IL-1β | human participants, whole blood ex vivo | 300 mg twice daily, multiple doses, 156 h, with: LPS/ATP | baseline: baseline | inhibition | 95.7%
Cc1ccc(C(=O)Nc2ccnc(S(N)(=O)=O)c2)c(N2CCCC(F)(F)CC2)n1 |  |  | Macaca mulatta, C-nociceptors | intravenous, 0.6 mg/kg bolus then 0.8 mg/kg/h, 90 min |  | conduction velocity | 102 ± 1.48 % baseline
CN(C(=O)n1cnc(-c2ccc[n+]([O-])c2)c1)C1CCCCC1 |  |  | mouse, brain | oral, 10 mg/kg, 4 h |  | peak anandamide level | 114 ± 8.8 pmol/g
CS(=O)(=O)CCNCc1ccc(-c2ccc3ncnc(Nc4ccc(OCc5cccc(F)c5)c(Cl)c4)c3c2)o1 |  | tumour growth | A-431 xenograft, mouse | oral, daily, 11 days |  | ED50 | 79.6 mg/kg
CC(N)C12CC3CC(CC(C3)C1)C2 (stereo not drawn) | human iPSC-derived cardiomyocytes | MyBP-C/MYH ratio, plate-normalised SD score |  | concentration not given, primary screen | direction not given | activity score | -4.5
C=CCn1c(=O)c2cnc(Nc3ccc(N4CCN(C)CC4)cc3)nc2n1-c1ccc2c(n1)[C@@](O)(CC)CC2 |  |  | OVCAR-3 xenograft, NOD/SCID mice | oral, 80 mg/kg, day 49, once daily 7 d on, 7 d off x 3 |  | tumour growth inhibition | 82.6%
CN(C)C(=O)c1cc2cnc(Nc3ccc(N4CCNCC4)cn3)nc2n1C1CCCC1 |  | RNA sequencing, item: HALLMARK_INTERFERON_GAMMA_RESPONSE | MB002 tumour | concentration not given | baseline: vehicle, direction not given | GSEA enrichment score | -0.22
COc1cc2cc(-c3ccc(CC(=O)Nc4cc(C(C)(C)C(F)(F)F)no4)cn3)cnc2cc1OC |  | RECIST v1.1 | RET-altered advanced solid tumour patients | oral, 20 mg once daily, phase I |  | progressive disease as best response | 100%
O=C1CCc2ccc(OCCCCN3CCN(c4cccc(Cl)c4Cl)CC3)cc2N1 |  |  | patients CYP2D6 IM | 12 months |  | stopping or switching | 50%
COC(=O)CCc1ccc(OCC(O)CNC(C)C)cc1 (stereo not drawn) |  |  | healthy male humans | dose not given, 5 min, with: saline | baseline: baseline | systolic blood pressure change | -1.6 mm Hg
Cn1cc(-c2ccc(-c3cncc(Cl)c3N3CCC4(CCNC4=O)CC3)cc2)cn1 | COLO 205 | gene expression, microarray, item: SULF1 mRNA |  | concentration not given, 2 h | baseline: untreated cells | log2 fold change | 2.47
CN(C)C(=O)Oc1cccc([N+](C)(C)C)c1 |  | neuromuscular block reversal | rat | dose not given, 0 (unit not given), with: cisatracurium | baseline: T1 twitch | train-of-four ratio | 4.34
NC(=O)c1cnc2[nH]ccc2c1N[C@@H]1[C@@H]2CC3C[C@H]1C[C@@](O)(C3)C2 |  | flow cytometry, item: CD8+ central memory T cells | Japanese healthy subjects, peripheral blood | oral, 30 mg twice daily, day 4 |  | change from baseline | 0.42%
OC(CCN1CCCCC1)(c1ccccc1)C1CC2C=CC1C2 (stereo not drawn) |  | resting-state EEG | healthy elderly humans | oral, 4 mg, eyes closed, LS mean | baseline: baseline | change in EEG Alpha1-power Fz-Cz | -30.8%
